Assay results pooled from the literature.
A part holds a random share of what one study measured. Changes are numbered by the printed parent chain.

Study 1 — technique: RNA Bind-n-Seq; form: RNA; sample: in vitro; tested at: 365 nM; relative to: no-protein control; direction: higher = stronger binding
Target: RNA binding protein fox-1 homolog 2, RRM domain, GST-SBP tag (RBFOX2, Homo sapiens, UniProt O43251-10, residues 100-194)
Notes: natural RNA segment, single round, ends assumed
Constant ends, left off below: GGGAGUUCUACAGUCCGACGAUC … UGGAAUUCUCGGGUGCCAA
Target sequence (chain): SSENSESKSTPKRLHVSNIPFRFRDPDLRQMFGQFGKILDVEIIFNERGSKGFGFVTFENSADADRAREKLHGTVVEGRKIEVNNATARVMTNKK
| Oligonucleotide | RBNS enrichment (R) |
| --- | --- |
| AAGGUAAGGAGACAUCCUCUUCGACACCGCUGUUGACCGAGGAGCUCAGGGCCACUUUGAGUGUGAUGAGAUACCCAGGAACACGUGUGCCCACAGCUGAAGUUUUACAU | 0.288 |
| UUAAAUGAAUUUUUAAGGCUGAAAUCUGUGGGUAAGAUGGAGUCUGGAGCUUUCCUCUUGGAACAGUUAACCGAAGACCCUCAUGGGCAAGGACAUCCGCUUGACUCCCC | 0.203 |
| UUGAAUAAUGGCCCAUUCAUGCCAACCUUGCCAACACGGAGAGGGCAGAGAUGCACUAGAAGACCUUCAUCCUCCCCUUCCUCUGCCCCAAGUCACUACAGUUGGUUCUA | 0.661 |
| UCUUAGUCAACCUCUGUAGAAAGUUUUCUCUAUGAAAGUAAAGCUGUUUGAGAAAUUAUUUUUUUACAGAUCUUUAUAAAAAAUAAACAUCUUUUGAUUGCUUGGAUUUA | 0.815 |
| UUUCAAGGGUAUCUGUUCUGAUACUGAAGGGAGAGUAUGCAUCUAAAAACAGCACUGUUCCCCAAGGGGGUGUUCUGGGCUUCUCUCUCUUCUCACUUUACCUGUUUUUA | 0.443 |
| GGGGCACCAGUCUUGGCUUUUAGGAAGCUCUGUUUAACUUACACAUAAGUUCUUAAGAUGUGUUGGCAGUAUUGCGUCACCCACGGCCGUCCCGGGGGCUGAACGUGUGG | 0.515 |
| AAUGCAAACGGCCACUGCAUUUUAAUGAUUGUUAUUCUUUUAUGAAUAAAAUGUAUGUAGAAACAAGCAAAUUUACUGAAACAAGCAGAAUUAAAAGAGAAACUGUAACA | 0.623 |
| GGACCAUGACUUAGGGAGGUGGGACCCACCCACCCCCAUCCAGGAACCGUGACGUCCAAGGAACCAAACCCAGACGCAGAACAAUAAAAUAAAUUCCGUACUCCCCACCC | 0.395 |

Study 2 — target: CCNB3, cyclin fold, Cln2 fusion (human); technique: yeast growth competition, sequencing; sample: yeast; notes: weak parent motif; relative to: not given; direction: higher = stronger binding
Parent: PKN2 docking peptide (human); VSAVQKLDFSDTM
| Variant | normalised enrichment score |
| --- | --- |
| VSAVQKDDFSDTM [L7D] | 0.0231 |
| VSAVQKLDFSDWM [T12W] | 0.791 |
| VSAVQKLDPSDTM [F9P] | 0.00292 |
| VSADQKLDFSDTM [V4D] | 0.14 |
| VSCVQKLDFSDTM [A3C] | 0.193 |
| VSAVQKLDFSGTM [D11G] | 0.339 |
| VSANQKLDFSDTM [V4N] | -0.144 |
| VSAVQKLDFSDIM [T12I] | 0.254 |
| VSAVQKLDFSFTM [D11F] | 0.129 |
| VSAVQLLDFSDTM [K6L] | 0.385 |
| VSAVQKLDFSDTF [M13F] | 0.167 |
| VSAVQKLDFSDHM [T12H] | 0.288 |
| VEAVQKLDFSDTM [S2E] | 0.0508 |
| VSAVQKLMFSDTM [D8M] | 0.519 |
| VSAVQKLPFSDTM [D8P] | 0.226 |
| VSAVQRLDFSDTM [K6R] | 0.0648 |
| VSAVQKLDFSDTA [M13A] | -0.00669 |
| VSAVQQLDFSDTM [K6Q] | 0.433 |
| VSAVQKLDFLDTM [S10L] | -0.0693 |
| HSAVQKLDFSDTM [V1H] | 0.198 |
| VSAVQKLDFSDTV [M13V] | 0.198 |
| VSAVQKLDFSDDM [T12D] | -0.223 |
| WSAVQKLDFSDTM [V1W] | 0.295 |
| VSAVQKLDFIDTM [S10I] | 0.343 |
| VSAVQPLDFSDTM [K6P] | -0.0164 |

Study 3 — technique: DHFR PCA, deep sequencing; sample: yeast; together with: (+)-ABA 710 µM; relative to: wild-type fitted maximum; direction: higher = stronger binding
Target: ABI1, truncated, D143A, DHFR fusion (Arabidopsis thaliana)
Notes: methotrexate growth selection, single substitutions
Parent: PYL1, truncated, DHFR fusion (Arabidopsis thaliana); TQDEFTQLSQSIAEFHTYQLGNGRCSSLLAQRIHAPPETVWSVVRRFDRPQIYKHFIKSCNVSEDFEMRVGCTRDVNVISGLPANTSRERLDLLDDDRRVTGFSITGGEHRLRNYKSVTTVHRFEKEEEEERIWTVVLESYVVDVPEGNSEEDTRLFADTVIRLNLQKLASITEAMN
| Variant | relative binding score |
| --- | --- |
| R90W | 41.6% |
| F47C | -1.86% |
| R88S | 105% |
| E151G | 97.7% |
| T120D | 2.93% |
| S80V | 35% |
| L156C | 103% |
| T39K | 103% |
| D144M | 81.5% |
| G23F | 95% |
| F124C | 110% |
| G102A | 102% |
| S42N | 113% |
| E109L | 93.5% |
| Q7E | 104% |
| L8I | 85.4% |
| R74S | 7.05% |
| F103Y | 108% |
| T101Y | 99.6% |
| S140Q | 30.7% |

Study 4 — technique: competition protein-binding microarray; form: double-stranded DNA, one strand shown; sample: in vitro; tested at: 2 µM; together with: Pho4 competitor, 0.05 µM; direction: higher = stronger binding; constant ends, left off below: … GTCTTGATTCGCTTGACGCTGCTG
Target: Centromere-binding protein 1, full length, His-tagged (CBF1, Saccharomyces cerevisiae, UniProt P17106, residues 1-351)
UniProt P17106, sequence (whole entry, looked up): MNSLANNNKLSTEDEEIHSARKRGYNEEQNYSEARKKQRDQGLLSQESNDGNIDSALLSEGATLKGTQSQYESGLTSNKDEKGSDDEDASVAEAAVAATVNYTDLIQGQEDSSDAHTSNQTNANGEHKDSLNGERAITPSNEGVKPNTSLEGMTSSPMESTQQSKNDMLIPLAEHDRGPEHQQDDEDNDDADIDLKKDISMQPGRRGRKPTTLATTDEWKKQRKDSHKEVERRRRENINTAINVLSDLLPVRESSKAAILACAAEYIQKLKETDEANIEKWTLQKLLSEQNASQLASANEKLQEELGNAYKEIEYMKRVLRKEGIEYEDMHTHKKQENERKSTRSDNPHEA
Notes: whole 60-bp probe, lowest competitor level
| Oligonucleotide | fluorescence intensity |
| --- | --- |
| CTAACGAAGGTTTGAATCGTGGGTGACAAGCCAAGT | 73.6 a.u. |
| ACAAGGAAGGTATCCCACCTGACGAACAAAGATTGA | 176 a.u. |
| CCGTTTCCTTTCCATCACGTGCGGAGGTAGCACCCG | 3230 a.u. |
| CCACATCTGTCTCTCAATGGTCAAATACCGTTTTAA | 59.8 a.u. |
| CTTTCCCGATCTTGATCAGTGGGTGTAGCACATTTG | 63.7 a.u. |
| CTAACGAAGGTTTGCCAAGTGGGTGACAAGCCAAGT | 73.3 a.u. |
| ATTCACTTGTGCGGCCACGTGCGGATGAATAATAAA | 1520 a.u. |
| CTGTGCTGGTCAGCCCATGTGTCTGTCCCTGGCTGG | 69.7 a.u. |
| ATTCACCAATTCCGTCACACTCAGCTAACTTCTCCT | 71.7 a.u. |
| CATACCCAACCTTTTCACGTGATATAAGATATTTGT | 3790 a.u. |
| ATGAAAATGAAGAAATGCGTGATGGGAAATTACGGG | 212 a.u. |
| CGGGGTTAAGTTTGTCACATTACTTGCTTGCAGCAG | 112 a.u. |
| AAATTACTAAGTTGGTTGGTGGGTGACGCCGTATGA | 63.9 a.u. |
| TCCAAAACACAGGGGCACGTGCATCCTTGTGGCACT | 1950 a.u. |
| CCGCATTCGACTCACCACGTGGAATATCCTTCTCAG | 645 a.u. |
| AACAGACCTGACGGCCACGATGCAGCAGACGCTTAC | 50.6 a.u. |
| GCCGCCGCTTCTCCACACGTGCACTCGGGTCTCTCG | 557 a.u. |
| AGCGATACGACAATTTTCGTGGGTATAGACTTCACC | 71.2 a.u. |
| CGTCCTAGCGATTGATCAGTGGGTGCCATGAGGAAG | 64.5 a.u. |

For quick reference, copied from above (study 2):
| Variant | normalised enrichment score |
| --- | --- |
| VSAVQKLDFSGTM [D11G] | 0.339 |
| VSANQKLDFSDTM [V4N] | -0.144 |
| VSAVQKLDFSDIM [T12I] | 0.254 |
| VSAVQKLDFSFTM [D11F] | 0.129 |
